# Assay results from different studies.
# Lines come from different studies, so protocols differ. Values joined by “and” are separate records of one study, mostly repeats; a detail may differ. Numbers after ± are the reported error.
Compound,assay,test system,conditions,scale,endpoint,value
c1cc(C2CCCCC2)ccc1-c1ccc(N2CCCC2)nc1,liver microsome stability,cynomolgus liver microsomes,1 µM,,hepatic clearance,29 mL/min/kg
C=CC(=O)Nc1cc(Nc2nccc(-c3c[nH]c4ccccc34)n2)c(OC)cc1N(C)CCN(C)C,storage stability,human plasma samples,"30 d, -80 °C, LLOQ level",relative to: nominal concentration,percentage recovery,19%
CCC1=[N+]2N=C(/C=C/C=C/c3ccccc3)C(=O)O[B-]2(c2ccccc2)Oc2cc(N(CC)CC)ccc21 (centres unmarked),,toluene,,,fluorescence quantum yield,0.32
O=C(Nc1cnccc1-c1ccc([18F])nc1)c1ccnc(NC(=O)C2CC2)c1,,"FVB/NJ mouse, both sexes, liver","intravenous, 20 min, with: tariquidar 15 mg/kg iv",,SUV,8.83
COCC1CN(C2CCN(c3cc(OC)c(Nc4ncc(Br)c(Nc5ccc6c(c5P(C)(C)=O)OCCO6)n4)cc3C)CC2)C1,,"EGFR-mutant NSCLC patients, plasma","oral, 90 mg single dose, geometric mean",,t1/2,29.3 h
C=C1C[C@]2(C(=O)OC)C=C(C(=O)Nc3cccc(C(=O)Nc4ccc(Nc5nccc(-c6cccnc6)n5)c(C)c4)c3)C(=O)[C@H]1C2,,"Wistar rat, male, plasma","10 µM, 60 min",,compound remaining,0.75% and 0.5%
CCNC(=S)NN=Cc1c2ccccc2cc2ccccc12.Cc1ccc(C(C)C)cc1.[Cl-].[Cl-].[Ru+2],UV-Vis spectroscopy,Tris buffer,"pH 7.20, 298 K, 50 mM NaCl",,aquation rate constant,0.00118 ± 0.00024 s⁻¹
C=C(NC(=O)c1csc(-c2nc3c(cc2O)-c2nc(cs2)C(=O)NC(C(C)O)C(=O)NC(=C(C)OC)c2nc(cs2)C(=O)NC2c4nc(cs4)C(=O)NC(COC(=O)c4c5c6c(cccc6n4O)COC(=O)C(OC4CC(C)(O)C(N(C)C)C(C)O4)C2OC5)c2nc-3cs2)n1)C(N)=O (centres unmarked),,"female Sprague-Dawley rat, plasma","intravenous, 18 mg/kg, single dose, infusion",,half-life,6.24 h
COc1cccc(OC)c1-c1cc(C(=O)NC2(C(=O)O)C3CC4CC(C3)CC2C4)nn1-c1ccc(C(=O)N(C)CCOCCOCCN(C)C(=O)[C@H](CCCCNC(=O)[C@H](CC(C)C)NC(=O)C2OC2C(=O)O)NC(=O)CN2CCN(CC(=O)[O-])CCN(CC(=O)[O-])CCN(CC(=O)[O-])CC2)cc1C(C)C.[177Lu+3] (mixture of isomers),,"mouse, HT-29 xenograft","168 h post injection, biodistribution",relative to: tumour over kidney uptake,tumour-to-kidney ratio,0.49
O=C(NC1CCOCC1)c1ccc([C@H]2[C@@H](F)[C@@H](F)C[C@@H](F)[C@H]2F)cc1,liver microsome stability,rat liver microsomes,1 µM,,hepatic clearance,6.1 mL/min/kg
O=C(N1CCCCC1)C12CC(c3ccccc3)(C1)C2(F)F,,pooled human liver microsomes,"2 µM, pH 7.4",,elimination rate constant,0.000133 s⁻¹
O=C(CN1CCOCC1)Nc1ccc([C@H]2[C@@H](F)[C@@H](F)C[C@@H](F)[C@H]2F)cc1,hepatocyte stability,cryopreserved human hepatocytes,1 µM,,hepatic clearance,6.2 mL/min/kg
OC1(C(F)(F)F)CCN(c2nc(Nc3ccnc(C(F)(F)F)c3)nc(-c3cccc(C(F)(F)F)n3)n2)C1 (centres unmarked),,"Sprague-Dawley rat, both sexes, plasma","oral gavage, 10 mg/kg",,AUC(0-24 h),9710 ± 1020 ng·h/mL
CN(C)c1cccc(-c2ccc(C3CCCCC3)cc2)c1,liver microsome stability,mouse liver microsomes,1 µM,,hepatic clearance,82 mL/min/kg
Fc1ccc(OCC2CN(Cc3ncc4ccccn34)CCC2(F)F)cc1F (centres unmarked),equilibrium dialysis,human plasma,,,fu,0.0055
O=C(Nc1ccc([C@H]2[C@@H](F)[C@@H](F)C[C@@H](F)[C@H]2F)cc1)C1CC1(F)F (some centres unmarked),hepatocyte stability,cryopreserved rat hepatocytes,1 µM,,hepatic clearance,20 mL/min/kg
C/C(N)=N/C(=N\S(=O)(=O)c1ccc(C(F)(F)F)cc1)N1C[C@H](c2ccccc2)C(c2ccc(Cl)cc2)=N1,,"C57BL/6 mouse, brain","intravenous, 10 mg/kg",,Tmax,0.5 h

# Excerpt of the above:
Compound,assay,test system,conditions,scale,endpoint,value
O=C(Nc1ccc([C@H]2[C@@H](F)[C@@H](F)C[C@@H](F)[C@H]2F)cc1)C1CC1(F)F (some centres unmarked),hepatocyte stability,cryopreserved rat hepatocytes,1 µM,,hepatic clearance,20 mL/min/kg
